# Published values pooled from the literature.
# Numbered parts are unrelated; each lists some results of a single study.

# Set 1
# Target: RING finger protein unkempt homolog, zinc fingers 1-6, GST-SBP tag (UNK, Homo sapiens, UniProt Q9C0B0, residues 30-357)
# UniProt Q9C0B0, sequence (30-357, looked up): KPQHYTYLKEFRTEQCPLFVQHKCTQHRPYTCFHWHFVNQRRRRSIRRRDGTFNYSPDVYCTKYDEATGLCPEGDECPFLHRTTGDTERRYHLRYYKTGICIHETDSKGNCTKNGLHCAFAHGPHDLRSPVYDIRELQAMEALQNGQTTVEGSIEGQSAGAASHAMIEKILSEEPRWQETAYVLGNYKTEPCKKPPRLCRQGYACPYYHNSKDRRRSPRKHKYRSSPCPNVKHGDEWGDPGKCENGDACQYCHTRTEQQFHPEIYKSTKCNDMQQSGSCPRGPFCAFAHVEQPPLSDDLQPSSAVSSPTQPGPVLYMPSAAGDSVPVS
# Technique: RNA Bind-n-Seq
# Form: RNA
# Matrix: in vitro
# Tested at: not given
# Notes: RNA with constant flanks, human and mouse sites, ends assumed
# Baseline: input RNA pool
# Reading: higher = stronger binding
Oligonucleotide,bound/input enrichment [ratio]
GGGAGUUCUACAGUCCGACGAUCAAGGUGAUAACCAUGUUUGUACAGCGACAGGUGUUUGCUGAGAACAAGGAUGAGAUUGCUUUAGUCCUGUUUGGUACAGAUGGCACUGACAAUCCCCUUUCUGGUGGGGAUCAGUAUCAGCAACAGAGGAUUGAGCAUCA,0.163
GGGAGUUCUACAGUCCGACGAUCAGACUAGCCUAUGCUGAAAACAUAGCUCUGCUGGCAGAAACAGCUCUGAGAUUCCUGGAAUUAGUACAGUUAAAAAAUCUUAAUAUGGAAAAUGACCCCAAUAAUGAAGAAAUAGAUGAGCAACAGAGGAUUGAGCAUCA,22.9
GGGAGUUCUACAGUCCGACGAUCAGACUUUCCAGCUCAGAGAGUGAAGAGAGCUAUUUGUCCAAGAACUCUGAAGAUGAUGAGCUAGCUAAAGAAUCAAAGCGGUCAGUUCGAAAGCGGGGCCGAAGCACAGACGAGUAUUCACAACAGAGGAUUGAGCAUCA,0.159
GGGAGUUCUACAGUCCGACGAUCGGAAGGGUGGUAUGUGUUUUCAUCUUUGGAAGAGAAAAUUAAAUUGGAAUUAUUUUCUAGAAAUUUUGAGAAGUCCACUCAAUUUUCCUGGGAGAGAGUGCUCACUGUGUGAAAGUACAUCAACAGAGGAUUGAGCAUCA,0.456
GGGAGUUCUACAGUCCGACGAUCCUGUCUGUCCACACCAUGGUCUCCUCAGUCCCCUCCACGCCAGCCCCUCUUCCCCACACCUAGUAGGUGUGCUACACCUCCCUUUGCCAGUCAUCCCGCCAUGGAUGGGGAGCCUACUUGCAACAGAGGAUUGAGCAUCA,0.344
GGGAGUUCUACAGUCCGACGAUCACAGAAGUGGAUCGAGCAAGUCACUGGUCGAAGUUUUGGUGACAAAGACUUCCGGACAGGACUAGAAAAUGGGAUCCUCCUUUGCGAGUUGCUGAAUGCUAUAAAGCCAGGACUUGUUAACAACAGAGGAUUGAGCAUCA,0.107
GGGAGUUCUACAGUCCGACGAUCAUUGCGCCGGCAGGAUGUCCCUGGCUGCCUACUGUGUCAUCUGUUGCAGGAGGAUAGGAUCCUUUGCUCCCCGAUCAAAAAGUCGCACGCCCUGGAGAAAUAUCCGAAAUAUAAUAAGAUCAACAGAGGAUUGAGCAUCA,0.125
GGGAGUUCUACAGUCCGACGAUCGCAUUUCCUAAUCCUGAGGCCAUAAGGGUUCCUUUAAGAGAAAAAUACCACUCUCUUCAACAGAAACUCAAACAUGGUGUUGUGAAAGGUCCUCAGACUGAGGAACUGAUGUCUACAGUCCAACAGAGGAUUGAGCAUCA,0.197

# Set 2
# Target: RNA binding protein fox-1 homolog 2, RRM domain, GST-SBP tag (RBFOX2, Homo sapiens, UniProt O43251-10, residues 100-194)
# Technique: RNA Bind-n-Seq
# Form: RNA
# Matrix: in vitro
# Tested at: 365 nM
# Notes: natural RNA segment, single round, ends assumed
# Baseline: no-protein control
# Reading: higher = stronger binding
# Target sequence (chain): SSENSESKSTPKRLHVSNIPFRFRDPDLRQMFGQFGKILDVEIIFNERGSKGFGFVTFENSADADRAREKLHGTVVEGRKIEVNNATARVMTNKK
Oligonucleotide,RBNS enrichment (R)
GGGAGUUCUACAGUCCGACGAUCCAGCUGCGUCCCGGAAACCAAGGUGGUGGGGACUCCCUGUGCCACCUCAUGCCACCCACUGGCUGGAGGGAAGGAGGGCAUGUAUCCGAUUAGAAUAGUCAAGUGGAUUAUGGAAUUCUCGGGUGCCAA,0.476
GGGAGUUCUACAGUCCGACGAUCCUCUCUGCUCGAGGCAGCAGGGGGCGCUUUGCAGUAUAGUUGAGGAAAAUGACCGCUCCUUGACCAAACUGAGAUGCACUUGGUGUGUGGGAACUGAUUGCUUCCUCCCUUGGAAUUCUCGGGUGCCAA,0.384
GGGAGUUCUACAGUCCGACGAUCUUCACCUAGAUGGAAUAGCCACCCUGAGCAGAACUUUGUGAUGCUUCAUUCUGUGGAAUUUUGUGCUUGCUACUGUAUAGUGCAUGUGGUGUAGGUUACUCUAACUGGUUUGGAAUUCUCGGGUGCCAA,0.508
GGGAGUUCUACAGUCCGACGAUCAAUGGUAUAUCCACUGACAGCUUGCACCAUGCACCUGGAAAAGCCACAGACACUCAACGCCAGCCUGUAAAAGCAACCGAGAAGUAGGCUGUACCCUGCAAUGCCAUAGGUGGAAUUCUCGGGUGCCAA,1.56
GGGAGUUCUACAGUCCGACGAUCAUAGGCCAACUGGAGCACUGGUACCCCCACCCUGGUGCGUGUUCACCCACGGGGUCACUUGAGGAAUCUGCCCCACUGCUUCUUGUGAGCAGAUCAGGACCCUUAGGAAAUGGAAUUCUCGGGUGCCAA,0.312
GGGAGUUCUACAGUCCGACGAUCAGUCGAUUUCUAGAAUCAAGUUUUAGAGUUCGGCUGAUGCAUCUGCCUGGGGACCUCAGAUGGGAGGAGUGUGUCAGUUGUACCCCGACAGAAAUGUCUCUGGGAUCUGUUGGAAUUCUCGGGUGCCAA,0.419
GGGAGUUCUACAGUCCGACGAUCCUGCCGCUGAGAAGGGUUGAUCCUGCAUCUGGGUUUGUUUACAGCAAUUCCUGGACUCGGGGGUAUUUUGGUCACAGGGUGGUUUUGGUUUAGGGGGUUUGUUUGUUGGGUGGAAUUCUCGGGUGCCAA,1.94
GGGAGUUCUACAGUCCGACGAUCUGGUUCCACGCCCCCUUCCGAGCUGACCACUGGAUGCUCUAUGAAUGCGAGAGCCCCUGGGCCGGUGGCUCUCGGGGGCUGGUCCAUGGGCGGCUGUGGCGUCAGGAUGGUGGAAUUCUCGGGUGCCAA,2

# Set 3
# Target: Sal-like protein 4, full length isoform A (SALL4, Homo sapiens, UniProt Q9UJQ4, residues 1-1053)
# UniProt Q9UJQ4, sequence (whole entry, looked up): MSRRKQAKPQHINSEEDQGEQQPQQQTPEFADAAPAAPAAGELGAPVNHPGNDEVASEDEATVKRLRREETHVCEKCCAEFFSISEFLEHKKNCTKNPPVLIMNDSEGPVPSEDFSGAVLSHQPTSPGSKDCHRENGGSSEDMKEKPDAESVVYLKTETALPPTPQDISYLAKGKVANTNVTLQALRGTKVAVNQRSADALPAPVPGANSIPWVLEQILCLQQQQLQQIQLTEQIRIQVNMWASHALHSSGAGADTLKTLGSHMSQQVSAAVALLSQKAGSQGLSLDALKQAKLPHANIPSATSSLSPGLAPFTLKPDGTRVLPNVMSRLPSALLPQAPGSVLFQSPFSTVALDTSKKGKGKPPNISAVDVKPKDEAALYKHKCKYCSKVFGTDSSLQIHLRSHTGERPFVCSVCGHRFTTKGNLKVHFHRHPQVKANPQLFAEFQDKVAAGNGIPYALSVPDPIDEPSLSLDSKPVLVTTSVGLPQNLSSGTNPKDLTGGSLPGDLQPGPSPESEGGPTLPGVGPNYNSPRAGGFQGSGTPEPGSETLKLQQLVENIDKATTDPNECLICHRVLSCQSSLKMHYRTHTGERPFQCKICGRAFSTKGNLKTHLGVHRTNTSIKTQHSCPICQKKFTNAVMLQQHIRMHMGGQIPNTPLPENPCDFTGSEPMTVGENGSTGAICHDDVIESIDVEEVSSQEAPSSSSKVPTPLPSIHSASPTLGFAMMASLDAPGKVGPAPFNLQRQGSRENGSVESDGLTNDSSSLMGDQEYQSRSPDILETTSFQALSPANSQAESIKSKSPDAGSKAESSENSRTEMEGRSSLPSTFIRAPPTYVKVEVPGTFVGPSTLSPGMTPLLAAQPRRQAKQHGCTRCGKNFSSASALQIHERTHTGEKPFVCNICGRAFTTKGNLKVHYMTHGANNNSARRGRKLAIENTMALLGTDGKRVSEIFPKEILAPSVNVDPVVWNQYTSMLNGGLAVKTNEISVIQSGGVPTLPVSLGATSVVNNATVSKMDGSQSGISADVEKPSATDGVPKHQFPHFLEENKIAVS
# Technique: universal PBM
# Form: double-stranded DNA, one strand shown
# Matrix: in vitro
# Tested at: 600 nM
# Notes: 8-mer, flanks averaged, mean of replicates
# Reading: higher = stronger binding
Oligonucleotide,E-score
CGATGGGC,-0.229
AGGGGATG,-0.14
CCCGGGTC,-0.408
CGCGCCCG,-0.369
AATGGACT,0.0315
TGTCAAAA,0.264
CCAAGTGC,-0.179
ACCCCCAA,-0.1
CGGCTATA,0.0648
CAAGCGAG,0.02
CGACACCG,-0.287
GCGATCGA,-0.124
ATTATCCA,0.206
CTCGCCGA,-0.278
ACAAGAGC,0.0707
GGGCCCTA,-0.294
AAATAGGG,0.0991
CTGAGCAC,-0.189
AATTTCAT,0.265
ACCACCAC,0.00645
ACTAGGAC,-0.0964

# Set 4
# Target: Interferon regulatory factor 5, full length, phosphomimetic (IRF5, Homo sapiens, UniProt Q13568-2, residues 1-514, K96S/S451D/S453D/S456D/S462D)
# Technique: protein-binding microarray
# Form: double-stranded DNA, one strand shown
# Matrix: in vitro
# Tested at: 250 nM
# Notes: 60-bp whole probe
# Added: salmon DNA 0.4 mg/ml
# Baseline: random background probes
# Reading: higher = stronger binding
# All sequences stand within: GCCTAGCAC … GTCTTGATTCGCTTGACGCTGCTG
Oligonucleotide,log fluorescence [z-score]
CATTTTCTGAATGTCCTCCTGTGCTAG,1.46
TTAGGTATCTACTTTCGGTTAGTGCTA,10.5
TTTGGTCTCGGACTGGGTTAGTGCTAG,0.175
TCAGATAACTTTTTTTTACTGTGCTAG,0.62
GACGGACGGGGGACTGGGGACGTGCTA,0.405
TTAGGTATCGGGACTGCGTTAGTGCTA,1.83
TCAAACTTCCCAATGGTACTGTGCTAG,-0.0123
GACGGTATCGGACTGGTGACGTGCTAG,0.728
GTAGATTTCAGTTCCGATTAGTGCTAG,2.89
TTAGGACTGGGGCTGGGTTAGTGCTAG,-0.311
TTAGGTTTCGGTCTCGCTTAGTGCTAG,10.3
TCATTTTCATTTTCTGAAACTGTGCTA,4.83
TGAGGTCTCGGTTTCGGTTAGTGCTAG,8.63
TTAGGTTTCGGGTCTGGGTTAGTGCTA,8.18
GACGAACTGAATTTCGAGACGTGCTAG,1.44
TTAGGTTTCCTTTTCCTATAGTGCTAG,1.78
GACCGTCTCCTTTTCCTGACGTGCTAG,0.106

# Some of these lines once more (set 3):
Oligonucleotide,E-score
CCCGGGTC,-0.408
TGTCAAAA,0.264
AGGGGATG,-0.14
CCAAGTGC,-0.179
AATTTCAT,0.265
